# Assay results of several laboratories.
# Compare with care: the assays were run in different laboratories. Several values in a cell are separate wells, animals, samples, runs or records. ± marks the error that the study gave.
# UniProt P06276, sequence (whole entry, looked up): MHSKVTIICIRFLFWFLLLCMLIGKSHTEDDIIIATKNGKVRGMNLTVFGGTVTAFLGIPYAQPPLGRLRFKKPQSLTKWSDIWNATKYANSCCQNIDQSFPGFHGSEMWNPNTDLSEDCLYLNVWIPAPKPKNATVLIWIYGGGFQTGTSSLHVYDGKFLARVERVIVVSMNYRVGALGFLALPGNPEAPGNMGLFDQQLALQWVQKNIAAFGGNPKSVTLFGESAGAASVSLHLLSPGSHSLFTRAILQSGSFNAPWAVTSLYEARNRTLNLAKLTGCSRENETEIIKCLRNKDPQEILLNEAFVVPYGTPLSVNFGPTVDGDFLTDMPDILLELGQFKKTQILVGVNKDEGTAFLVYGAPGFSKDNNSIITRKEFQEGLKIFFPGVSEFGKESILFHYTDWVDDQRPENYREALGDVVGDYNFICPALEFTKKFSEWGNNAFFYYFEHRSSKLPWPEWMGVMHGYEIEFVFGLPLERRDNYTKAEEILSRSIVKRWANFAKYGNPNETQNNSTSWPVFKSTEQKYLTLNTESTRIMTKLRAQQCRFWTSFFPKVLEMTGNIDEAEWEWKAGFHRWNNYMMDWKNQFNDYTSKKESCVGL
# UniProt P32239, sequence (whole entry, looked up): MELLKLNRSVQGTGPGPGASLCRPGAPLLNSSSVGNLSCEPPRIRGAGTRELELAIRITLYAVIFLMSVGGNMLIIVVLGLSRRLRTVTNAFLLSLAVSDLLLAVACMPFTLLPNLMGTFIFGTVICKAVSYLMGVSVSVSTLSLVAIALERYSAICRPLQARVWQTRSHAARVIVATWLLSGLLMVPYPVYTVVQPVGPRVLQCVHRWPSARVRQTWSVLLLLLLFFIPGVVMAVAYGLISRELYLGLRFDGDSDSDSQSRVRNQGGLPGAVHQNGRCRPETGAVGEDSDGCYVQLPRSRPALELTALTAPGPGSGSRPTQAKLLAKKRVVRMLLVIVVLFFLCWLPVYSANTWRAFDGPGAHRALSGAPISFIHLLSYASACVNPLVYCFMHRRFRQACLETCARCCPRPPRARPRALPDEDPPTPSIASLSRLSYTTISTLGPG
# UniProt P62813, sequence (whole entry, looked up): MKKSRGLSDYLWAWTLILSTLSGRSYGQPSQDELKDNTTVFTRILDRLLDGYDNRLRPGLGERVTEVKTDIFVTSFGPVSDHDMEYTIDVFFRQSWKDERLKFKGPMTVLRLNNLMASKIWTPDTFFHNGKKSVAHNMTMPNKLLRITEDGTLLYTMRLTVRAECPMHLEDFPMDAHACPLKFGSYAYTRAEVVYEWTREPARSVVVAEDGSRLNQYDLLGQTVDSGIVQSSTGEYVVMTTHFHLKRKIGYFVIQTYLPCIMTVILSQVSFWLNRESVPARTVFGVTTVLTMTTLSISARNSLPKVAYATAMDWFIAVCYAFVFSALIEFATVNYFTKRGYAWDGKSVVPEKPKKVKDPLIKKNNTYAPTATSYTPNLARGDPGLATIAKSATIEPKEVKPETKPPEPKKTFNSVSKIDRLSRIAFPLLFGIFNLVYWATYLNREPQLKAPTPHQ
# UniProt Q9HB40, sequence (whole entry, looked up): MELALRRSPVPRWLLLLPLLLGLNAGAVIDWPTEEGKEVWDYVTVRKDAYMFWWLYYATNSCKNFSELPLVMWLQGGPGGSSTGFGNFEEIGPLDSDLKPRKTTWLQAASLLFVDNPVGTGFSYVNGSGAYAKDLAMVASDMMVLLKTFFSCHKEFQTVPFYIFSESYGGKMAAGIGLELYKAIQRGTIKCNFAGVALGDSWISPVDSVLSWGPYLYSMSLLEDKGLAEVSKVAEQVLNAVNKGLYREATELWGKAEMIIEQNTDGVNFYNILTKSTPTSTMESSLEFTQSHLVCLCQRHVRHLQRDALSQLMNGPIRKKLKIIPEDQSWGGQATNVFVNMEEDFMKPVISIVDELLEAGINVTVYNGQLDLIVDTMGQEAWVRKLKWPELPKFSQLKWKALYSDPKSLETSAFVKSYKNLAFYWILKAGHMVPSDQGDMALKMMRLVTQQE
# UniProt Q9H7Z7, sequence (whole entry, looked up): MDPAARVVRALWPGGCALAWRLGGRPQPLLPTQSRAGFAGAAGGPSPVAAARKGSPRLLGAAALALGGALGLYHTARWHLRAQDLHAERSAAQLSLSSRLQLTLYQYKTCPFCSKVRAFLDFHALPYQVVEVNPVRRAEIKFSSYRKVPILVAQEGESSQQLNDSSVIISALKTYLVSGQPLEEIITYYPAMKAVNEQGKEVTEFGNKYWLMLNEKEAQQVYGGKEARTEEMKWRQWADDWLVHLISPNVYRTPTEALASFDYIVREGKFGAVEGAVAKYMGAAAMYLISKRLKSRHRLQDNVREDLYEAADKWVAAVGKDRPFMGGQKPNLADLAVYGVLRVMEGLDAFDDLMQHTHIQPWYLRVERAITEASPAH
# UniProt P46089, sequence (whole entry, looked up): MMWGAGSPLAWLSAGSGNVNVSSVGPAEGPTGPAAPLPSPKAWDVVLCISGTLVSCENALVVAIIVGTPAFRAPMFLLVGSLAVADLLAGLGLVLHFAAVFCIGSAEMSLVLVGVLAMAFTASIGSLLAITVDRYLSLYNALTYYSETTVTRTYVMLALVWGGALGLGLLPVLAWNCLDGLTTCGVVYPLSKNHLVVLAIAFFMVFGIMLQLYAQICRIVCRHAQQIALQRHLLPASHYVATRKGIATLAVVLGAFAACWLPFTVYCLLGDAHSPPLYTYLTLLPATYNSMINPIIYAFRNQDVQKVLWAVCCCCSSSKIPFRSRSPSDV
# UniProt P81908, sequence (whole entry, looked up): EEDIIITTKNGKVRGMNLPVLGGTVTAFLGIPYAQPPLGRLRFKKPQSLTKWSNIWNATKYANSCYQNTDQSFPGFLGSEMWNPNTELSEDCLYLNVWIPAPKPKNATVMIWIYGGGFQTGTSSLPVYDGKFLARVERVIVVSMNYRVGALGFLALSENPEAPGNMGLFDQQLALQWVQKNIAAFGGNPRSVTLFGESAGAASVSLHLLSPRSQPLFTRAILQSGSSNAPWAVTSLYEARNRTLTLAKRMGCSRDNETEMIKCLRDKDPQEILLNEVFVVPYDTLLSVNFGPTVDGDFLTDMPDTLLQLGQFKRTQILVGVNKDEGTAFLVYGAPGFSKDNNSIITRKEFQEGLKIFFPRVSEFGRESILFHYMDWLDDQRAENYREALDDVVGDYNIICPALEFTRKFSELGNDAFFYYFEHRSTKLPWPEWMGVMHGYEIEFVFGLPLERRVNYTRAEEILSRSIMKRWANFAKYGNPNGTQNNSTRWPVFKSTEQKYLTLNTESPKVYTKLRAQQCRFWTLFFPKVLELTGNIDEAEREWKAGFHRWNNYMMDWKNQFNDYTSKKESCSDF
# UniProt Q05941, sequence (whole entry, looked up): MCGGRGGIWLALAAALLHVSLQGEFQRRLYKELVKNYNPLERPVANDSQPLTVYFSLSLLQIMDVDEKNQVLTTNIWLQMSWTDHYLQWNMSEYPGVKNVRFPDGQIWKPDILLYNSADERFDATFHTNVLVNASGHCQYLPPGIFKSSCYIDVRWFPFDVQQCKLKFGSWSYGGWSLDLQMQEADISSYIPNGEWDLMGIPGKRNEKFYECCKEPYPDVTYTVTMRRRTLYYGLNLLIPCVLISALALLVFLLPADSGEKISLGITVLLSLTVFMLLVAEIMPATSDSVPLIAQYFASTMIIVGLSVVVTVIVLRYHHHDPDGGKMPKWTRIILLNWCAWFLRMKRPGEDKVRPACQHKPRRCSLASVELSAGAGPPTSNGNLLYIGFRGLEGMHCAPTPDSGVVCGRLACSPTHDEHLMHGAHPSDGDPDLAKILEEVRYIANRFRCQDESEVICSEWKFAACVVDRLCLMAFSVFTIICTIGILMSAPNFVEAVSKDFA
# UniProt Q62351, sequence (whole entry, looked up): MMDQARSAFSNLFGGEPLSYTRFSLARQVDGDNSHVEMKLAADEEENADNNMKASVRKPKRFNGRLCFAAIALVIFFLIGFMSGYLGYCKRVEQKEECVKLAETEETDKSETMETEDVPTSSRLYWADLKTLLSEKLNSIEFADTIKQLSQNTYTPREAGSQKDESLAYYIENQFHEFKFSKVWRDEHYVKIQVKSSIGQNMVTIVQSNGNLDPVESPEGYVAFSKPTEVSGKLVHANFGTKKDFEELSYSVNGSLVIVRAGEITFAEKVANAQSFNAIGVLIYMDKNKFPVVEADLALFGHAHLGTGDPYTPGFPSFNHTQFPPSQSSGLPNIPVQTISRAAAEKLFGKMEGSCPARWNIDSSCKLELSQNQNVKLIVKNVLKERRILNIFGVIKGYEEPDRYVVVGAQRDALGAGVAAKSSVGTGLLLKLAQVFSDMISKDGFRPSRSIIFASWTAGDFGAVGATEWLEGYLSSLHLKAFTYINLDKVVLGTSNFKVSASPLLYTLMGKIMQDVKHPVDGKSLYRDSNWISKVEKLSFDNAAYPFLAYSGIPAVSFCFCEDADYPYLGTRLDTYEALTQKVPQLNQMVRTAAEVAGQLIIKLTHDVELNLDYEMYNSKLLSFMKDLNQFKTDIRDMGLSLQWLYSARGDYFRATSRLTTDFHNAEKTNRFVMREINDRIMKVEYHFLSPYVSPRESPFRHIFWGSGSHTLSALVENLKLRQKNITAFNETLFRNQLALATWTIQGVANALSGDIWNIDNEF
# UniProt P00942, sequence (whole entry, unmodified, looked up): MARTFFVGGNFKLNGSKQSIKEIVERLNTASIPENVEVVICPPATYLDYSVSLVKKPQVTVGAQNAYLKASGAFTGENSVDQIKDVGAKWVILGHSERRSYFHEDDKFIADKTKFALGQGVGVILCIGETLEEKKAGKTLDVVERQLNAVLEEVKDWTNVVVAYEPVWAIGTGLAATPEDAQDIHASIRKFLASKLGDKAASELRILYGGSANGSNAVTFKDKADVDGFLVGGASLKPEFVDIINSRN
# UniProt P38489, sequence (whole entry, looked up): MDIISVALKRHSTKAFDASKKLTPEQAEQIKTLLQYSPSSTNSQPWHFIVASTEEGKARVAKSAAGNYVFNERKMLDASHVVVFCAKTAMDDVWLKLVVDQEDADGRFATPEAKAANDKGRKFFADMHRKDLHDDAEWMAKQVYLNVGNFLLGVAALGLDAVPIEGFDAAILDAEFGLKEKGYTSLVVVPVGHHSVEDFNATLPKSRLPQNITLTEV
Compound,target,assay,system,conditions,how to read,quantity,result
Cc1cc(N2CCNCC2)nc2ccccc12,"Muscarinic acetylcholine receptor M4 (CHRM4, Homo sapiens, UniProt P08173)","ERK1/2 phosphorylation, agonist",CHO cells,,,Emax,< 10%
Cc1[nH]c(C)c(S(=O)(=O)Nc2ccc(S(F)(F)(F)(F)F)cc2)c1C(=O)N1CCC(F)(F)C1,"D(3) dopamine receptor (DRD3, Homo sapiens, UniProt P35462)","allosteric modulator, ternary complex model",,"added: pramipexole, [3H]methylspiperone",,cooperativity factor α,26
O=C(Nc1cccnn1)N1CCC(=Cc2cccc(Oc3ccc(C(F)(F)F)cn3)c2)CC1,"Gastrin/cholecystokinin type B receptor (CCKBR, Homo sapiens, UniProt P32239)",radioligand binding,,concentration not given,,inhibition,5% and 9%
CC[C@H](C)[C@H](NC(C)=O)C(=O)N[C@@H](CCC(=O)O)C(=O)N[C@H](C(=O)N[C@H](C=O)CC(=O)O)[C@@H](C)O,"Caspase-1 (CASP1, Homo sapiens, UniProt P29466)",,,,,Hill slope,-1.17
O=C(O)COP(=O)(O)O,"TPI1 (Saccharomyces cerevisiae, UniProt P00942, S211G)","enzyme activity, competitive inhibitor, GPDH/NADH-coupled",,"pH 7.5, 25 °C, ionic strength 0.1 NaCl, added: glyceraldehyde 3-phosphate substrate",relative to: mutant over wild type,Ki ratio,1.7
C[C@@H]1NC(=O)N[C@@H]1CCCCCC(=O)N1CCN(C(=O)c2ccc(/C=C/c3n[nH]c4cc(-c5ccc(S(=O)(=O)F)cc5)ccc34)cc2)CC1,"Tyrosine-protein kinase ABL1 (ABL1, Homo sapiens, UniProt P00519)",covalent inhibitor,recombinant protein,,,kinact/KI,90 M⁻¹ s⁻¹
CCCCOP(=O)(O)C(C)=O,"dxs (Pseudomonas aeruginosa, UniProt Q9KGU7, R106A)","inhibitor, DXPS-IspC coupled",,,relative to: wild-type enzyme,IC50 fold increase,15 fold
CN(C(=O)n1cnc(-c2ccc[n+]([O-])c2)c1)C1CCCCC1,"Abhydrolase domain-containing protein 11 (Rattus norvegicus, UniProt D3ZXK4)","enzyme activity, ABPP","rat, brain","oral, 100 mg/kg/day, 1 days",relative to: vehicle,fold change,-2.8
NC(=O)c1cc[n+](CC2=C(C(=O)O)N3C(=O)[C@@H](NC(=O)[C@@H](c4ccccc4)S(=O)(=O)[O-])[C@H]3SC2)cc1,"Penicillin-binding protein 1A (pbpA, Streptococcus pneumoniae, UniProt Q8DR59)",inhibitor,,,,kinact/KI,85 ± 6.5 M⁻¹ s⁻¹
CCOC(=O)COc1ccc2c(=O)c3ccccc3oc2c1,"Acetylcholinesterase (ache, Electrophorus electricus, UniProt O42275)","enzyme activity, inhibitor, Lineweaver-Burk plot",,3.36 µM,higher = faster reaction,Vmax,0.0046 a.u.
CN1CCN(c2cc(-c3ccncc3)c(-c3ccc4ccccc4c3)nn2)CC1,"Metabotropic glutamate receptor 1 (GRM1, Homo sapiens, UniProt Q13255)","agonist, FLIPR",,12.5 µM,,activation,-0.2%
CCN(CC)CCCC[C@H](NC(=O)[C@H](CC(C)C)NC(=O)[C@H](C)NC(=O)[C@H](Cc1ccccc1)NC(=O)c1ccc(C(C)(C)C)cc1)C(=O)N[C@@H](CO)C(=O)OC,"Peregrin, isoform A (BRPF1, Homo sapiens, UniProt P55201)","thermal stabilisation, thermal shift",,25 µM,"relative to: protein without compound, higher = stronger binding",delta Tm,-0.04 °C
Clc1ccc(-c2ccccc2Cl)cc1,"Androgen receptor (AR, Homo sapiens, UniProt P10275)","reporter gene, antagonist",,"40 µM, added: DHT 2 nM",relative to: DHT 2 nM,maximum activity,18%
Nc1nc2c(ncn2[C@H]2C[C@H](O)[C@@H](COP(=O)(O)OP(=O)(O)OP(=O)(O)O)O2)c(=O)[nH]1,"Gag-Pol polyprotein, reverse transcriptase (gag-pol, Human immunodeficiency virus type 1 group M subtype B, UniProt P04585, K653T)","nucleotide misincorporation, steady-state kinetics",,"K66T RT, added: matched template/primer, template T",,kcat,0.0472 ± 0.00333 s⁻¹
O=C(c1ccc(Cl)cc1)N1CCN2C(=O)N(OC(=O)N3CCOc4ccccc43)C(=O)C2C1 (centres unmarked),"Retinoid-inducible serine carboxypeptidase (SCPEP1, Homo sapiens, UniProt Q9HB40)","enzyme activity, inhibitor, MS-based ABPP",SW-620 in situ,"10 µM, 2 h, 37 °C","relative to: compound over DMSO, lower = stronger inhibition",median ratio,1.07
Nc1ncnc2c1ncn2[C@@H]1O[C@H](COP(=O)(O)OP(=O)(O)NP(=O)(O)O)[C@@H](O)[C@H]1O,"Cell cycle histidine kinase CckA, cytoplasmic region (Caulobacter vibrioides, UniProt Q9X688)",isothermal titration calorimetry,Caulobacter crescentus,"concentration not given, 12 °C, added: c-di-GMP 100 µM",,binding enthalpy (ΔH),-2.5 kcal/mol
O=C(O[C@H]1C[C@H]2CC[C@@H](C1)[N+]21CCCC1)C(O)(c1ccccc1)c1ccccc1,"Cholinesterase (BCHE, Homo sapiens, UniProt P06276)",,,"concentration not given, Triton",,efficacy,-80.4 ± 12.1%
CN(C(=O)n1cnc(-c2ccc[n+]([O-])c2)c1)C1CCCCC1,"Alpha-1B adrenergic receptor (Adra1b, Rattus norvegicus, UniProt P15823)",radioligand binding,,"10 µM, added: [3H]prazosin",,inhibition,4%
COc1c(N2CC3CCCNC3C2)c(F)cc2c(=O)c(C(=O)OCc3cnc([N+](=O)[O-])s3)cn(C3CC3)c12.O=C(O)C(F)(F)F (centres unmarked),"Oxygen-insensitive NAD(P)H nitroreductase (nfsB, Escherichia coli K-12, UniProt P38489)",substrate,,added: NADH 100 µM,,initial rate,7.41 ± 0.98 µM/min
[2H]c1c([2H])c([C@]2([2H])CCCN2C(=O)C(C)(C)Oc2ccc3cn[nH]c3c2)c([2H])c([2H])c1C([2H])([2H])[2H],"Calcium/calmodulin-dependent protein kinase type II subunit alpha (CAMK2A, Homo sapiens, UniProt Q9UQM7)",KINOMEscan,,1 µM,relative to: DMSO control,remaining binding,66%
CC[C@@H](C)[C@@H](NC(=O)[C@@H](Cc1ccc(O)cc1)NC(=O)[C@H]1CCCN1C(=O)[C@@H](CCCNC(=N)N)NC(=O)[C@H](N)Cc1c[nH]cn1)C(=O)N[C@H](C)C(=O)N[C@H](Cc1c[nH]cn1)C(=O)N[C@H](CCCNC(=N)N)C(=O)N[C@H](CCCCNC(=O)c1cccc(S(=O)(=O)F)c1)C(=O)N[C@H](Cc1ccc(O)cc1)C(=O)N[C@H](CO)C(=O)N[C@H](Cc1ccccc1)C(N)=O,"Transferrin receptor protein 1 (Tfrc, Mus musculus, UniProt Q62351)",flow cytometry,RAW264.7,"6 h, pH 7.4, unit not given",relative to: 0 h,surface TFRC expression,0.904
CC1=C(C(=O)O)N2C(=O)[C@@H](NC(=O)[C@H](N)c3ccccc3)[C@H]2SC1,"Penicillin-binding protein 2B (Streptococcus pneumoniae, UniProt P0A3M6)",inhibitor,,,,kinact/KI,4 ± 2.7 M⁻¹ s⁻¹
NCc1cc(=O)[nH]o1,"GABA-A receptor; alpha-1/beta-2/gamma-2 (Rattus norvegicus, UniProt P18508+P62813+P63138)","membrane potential, agonist, QP-DHM fluorescence",HEK293 expressing GABAA,,relative to: GABA,maximal response,109%
C[C@H]1COCCN1c1nc(NCc2cccnc2C(F)(F)F)c2cccnc2n1,"Vascular endothelial growth factor receptor 2 (KDR, Homo sapiens, UniProt P35968)",binding,,CEREP panel,,IC50,> 100 µM
O=C(Nc1cnccc1Cl)N1CCN(Cc2ccc3c(c2)OC(F)(F)O3)CC1,"Protein S100-A16 (Rattus norvegicus, UniProt A0ACM8QDC9)",competitive ABPP with azido-FP probe,rat brain membrane fraction,"1 µM, unit not given",relative to: DMSO,probe labelling,-1.1
CC(=O)N[C@@H](CS)C(=O)N[C@@H](CCCNC(=N)N)C(=O)N[C@@H](CCCCN)C(=O)N[C@@H](CCCNC(=N)N)C(=O)N[C@@H](CC(N)=O)C(=O)N[C@@H](CCCNC(=N)N)C(=O)N[C@@H](CO)C(=O)N1CCC[C@H]1C(=O)N[C@@H](CCC(=O)O)C(=O)N[C@@H](CCCNC(=N)N)C(N)=O,"WD repeat-containing protein 5 (WDR5, Homo sapiens, UniProt P61964)","binding, competitor of LANA peptide, ITC",,"pH 7.0, 20 °C, WIN motif peptide",,ΔH,-10.5 kcal/mol
COc1cc(Nc2ncc(F)c(Nc3ccc4c(n3)NC(=O)C(C)(C)O4)n2)cc(OC)c1OC,"Serine/threonine-protein kinase ULK1 (ULK1, Homo sapiens, UniProt O75385)",KINOMEscan,,10 µM,,inhibition,100%
COc1ccc(N2C(=O)N(c3c(C)cccc3Cl)Cc3cnc(Nc4ccc(C5CCN(C)CC5)cc4OC)nc32)nc1,"Serine/threonine-protein kinase DCLK2 (DCLK2, Homo sapiens, UniProt Q8N568)","kinase activity, inhibitor",,"0.5 µM, DCAMKL2",,inhibition,11%
CC1=CC(=O)C=C(C)C1=O,"Reaction center protein M chain, QA site (pufM, Cereibacter sphaeroides, UniProt P0C0Y9)",charge recombination,"Rhodobacter sphaeroides, LDAO detergent solution","pH 7.8, 298 K, quinone reconstituted in QA site",,P+QA− recombination rate,1.75 s⁻¹
C=CC[N+]1([C@H]2C[C@H]3[C@@H]4CC[C@H]5C[C@H](OC(C)=O)[C@@H](N6CCCCC6)C[C@]5(C)[C@H]4CC[C@]3(C)[C@H]2OC(=O)CC)CCCCC1,"Cholinesterase (BCHE, Homo sapiens, UniProt P06276)",,,"concentration not given, Triton",,efficacy,-115 ± 8.76%
COc1ccc2c3c([nH]c2c1)CCN(C)CC3.O=C(O)/C=C/C(=O)O,"Neuronal acetylcholine receptor subunit alpha-7 (Chrna7, Rattus norvegicus, UniProt Q05941)","ion current, inhibitor, two-electrode voltage clamp","Xenopus laevis oocytes, rat",added: 100 µM acetylcholine,,Hill coefficient,1.9 ± 0.2
CCN(C)C(=O)Oc1ccc(CCC(=O)N(CC)CC)cc1OC,"Cholinesterase (BCHE, Equus caballus, UniProt P81908)",Ellman,equine serum BuChE,,relative to: AChE IC50 over BuChE IC50,selectivity ratio,1.1
C[C@H]1CN(c2n[nH]c3nc(N[C@H]4CC[C@H](NS(=O)(=O)CCC(F)(F)F)CC4)ncc23)CCO1,"Prostaglandin E synthase 2 (Homo sapiens, UniProt Q9H7Z7)","Kinobeads competition, refers to: PTGES2",,"0.16 µM, unit not given",relative to: vehicle,remaining binding,1.46
Nc1nc2c(ncn2[C@@H]2O[C@H](COP(=O)(O)OP(=O)(O)O[C@H]3O[C@H](CCO)C(=O)[C@@H](O)[C@@H]3O)[C@@H](O)[C@H]2O)c(=O)[nH]1,"C4-reductase HS:23, Campylobacter jejuni",substrate,,"pH 7.5, 25 °C, substrate formed in situ, added: C3-epimerase excess, NADPH 300 µM",,Km,22 ± 8 µM
CC(C)(Cc1c[nH]c2ccccc12)NCC(O)COc1ccccc1C#N (centres unmarked),"Cholinesterase (BCHE, Homo sapiens, UniProt P06276)",,,"concentration not given, Triton",,efficacy,-80 ± 12.8%
COc1cc(N)c(Cl)cc1C(=O)NC1CN2CCC1CC2 (centres unmarked),"G-protein coupled receptor 3 (GPR3, Homo sapiens, UniProt P46089)","β-arrestin recruitment, TANGO luminescence",,concentration not given,relative to: basal luminescence,log2 fold change,-0.06
O=C(O)CCC(=O)C(=O)O,"Hypoxia-inducible factor 1-alpha inhibitor (HIF1AN, Homo sapiens, UniProt Q9NWT6, Y93A)",cosubstrate,,"pH 7.00, 37.0 °C, mutant Y93A, added: CTAD peptide 100 µM, cosubstrate 217 µM",,apparent kcat,0.25 ± 0.0667 s⁻¹
c1cc(CN2CCCCC2)cc(OCCCNc2nc3ccccc3s2)c1,"Cholinesterase (BCHE, Homo sapiens, UniProt P06276)",,,"concentration not given, Triton",,efficacy,-95.2 ± 4.29%

# Some of these lines once more:
Compound,target,assay,system,conditions,how to read,quantity,result
CCN(CC)CCCC[C@H](NC(=O)[C@H](CC(C)C)NC(=O)[C@H](C)NC(=O)[C@H](Cc1ccccc1)NC(=O)c1ccc(C(C)(C)C)cc1)C(=O)N[C@@H](CO)C(=O)OC,"Peregrin, isoform A (BRPF1, Homo sapiens, UniProt P55201)","thermal stabilisation, thermal shift",,25 µM,"relative to: protein without compound, higher = stronger binding",delta Tm,-0.04 °C
c1cc(CN2CCCCC2)cc(OCCCNc2nc3ccccc3s2)c1,"Cholinesterase (BCHE, Homo sapiens, UniProt P06276)",,,"concentration not given, Triton",,efficacy,-95.2 ± 4.29%
CC[C@@H](C)[C@@H](NC(=O)[C@@H](Cc1ccc(O)cc1)NC(=O)[C@H]1CCCN1C(=O)[C@@H](CCCNC(=N)N)NC(=O)[C@H](N)Cc1c[nH]cn1)C(=O)N[C@H](C)C(=O)N[C@H](Cc1c[nH]cn1)C(=O)N[C@H](CCCNC(=N)N)C(=O)N[C@H](CCCCNC(=O)c1cccc(S(=O)(=O)F)c1)C(=O)N[C@H](Cc1ccc(O)cc1)C(=O)N[C@H](CO)C(=O)N[C@H](Cc1ccccc1)C(N)=O,"Transferrin receptor protein 1 (Tfrc, Mus musculus, UniProt Q62351)",flow cytometry,RAW264.7,"6 h, pH 7.4, unit not given",relative to: 0 h,surface TFRC expression,0.904
O=C(O)COP(=O)(O)O,"TPI1 (Saccharomyces cerevisiae, UniProt P00942, S211G)","enzyme activity, competitive inhibitor, GPDH/NADH-coupled",,"pH 7.5, 25 °C, ionic strength 0.1 NaCl, added: glyceraldehyde 3-phosphate substrate",relative to: mutant over wild type,Ki ratio,1.7
NCc1cc(=O)[nH]o1,"GABA-A receptor; alpha-1/beta-2/gamma-2 (Rattus norvegicus, UniProt P18508+P62813+P63138)","membrane potential, agonist, QP-DHM fluorescence",HEK293 expressing GABAA,,relative to: GABA,maximal response,109%
